# Measured values from different studies.
# Every numbered part comes from another study and shows a few of its results, in no order. “And” joins repeats or separate records; there may be more than shown.

# Set 1
# Target: Sal-like protein 4, full length isoform B (SALL4, Homo sapiens, UniProt Q9UJQ4-2, residues 1-616)
# Method: universal PBM
# Form: double-stranded DNA, one strand shown
# Medium: in vitro
# Concentration: not given
# Notes: 8-mer, flanks averaged, mean of replicates
# Reading: higher = stronger binding
# Residues (chain): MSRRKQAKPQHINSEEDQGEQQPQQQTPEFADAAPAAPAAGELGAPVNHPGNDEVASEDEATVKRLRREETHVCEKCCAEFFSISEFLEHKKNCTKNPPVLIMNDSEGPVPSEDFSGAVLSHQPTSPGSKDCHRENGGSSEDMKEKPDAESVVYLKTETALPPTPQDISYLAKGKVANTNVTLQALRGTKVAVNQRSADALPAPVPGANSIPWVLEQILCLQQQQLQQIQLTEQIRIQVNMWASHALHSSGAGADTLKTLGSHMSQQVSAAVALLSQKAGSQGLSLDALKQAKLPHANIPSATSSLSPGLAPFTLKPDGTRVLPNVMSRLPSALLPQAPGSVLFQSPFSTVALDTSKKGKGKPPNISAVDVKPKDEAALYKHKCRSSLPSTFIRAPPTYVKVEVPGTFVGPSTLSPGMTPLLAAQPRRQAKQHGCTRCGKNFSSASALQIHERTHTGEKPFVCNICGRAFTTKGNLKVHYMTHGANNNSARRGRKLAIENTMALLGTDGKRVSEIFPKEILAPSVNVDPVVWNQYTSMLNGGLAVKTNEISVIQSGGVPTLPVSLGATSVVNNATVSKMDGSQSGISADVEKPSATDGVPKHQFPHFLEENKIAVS
Sequence,E-score
CCTAAAGA,0.0103
ACTGCCAG,-0.11
GTCAATCA,0.162
CCCAACAA,-0.064
GTACAGAA,-0.0168
CTTTATTA,0.404
CTTGAGCC,-0.151
AAAGGATA,0.22

# Set 2
# Target: Histone acetyltransferase KAT6A, both winged helices, GST fusion (KAT6A, Homo sapiens, UniProt Q92794, residues 1-181)
# Method: protein binding microarray
# Form: double-stranded DNA, one strand shown
# Medium: in vitro
# Concentration: not given
# Notes: 8-mer, flanks averaged, mean of 2 arrays, mostly near background
# Baseline: not given
# Reading: higher = stronger binding
# Residues (chain): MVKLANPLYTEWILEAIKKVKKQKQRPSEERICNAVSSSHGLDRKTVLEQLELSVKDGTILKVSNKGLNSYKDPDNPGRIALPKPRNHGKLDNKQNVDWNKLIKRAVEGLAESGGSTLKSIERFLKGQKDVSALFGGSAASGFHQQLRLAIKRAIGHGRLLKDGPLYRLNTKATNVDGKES
Sequence,E-score
CATGCGGC,0.209
CGGCGTAA,0.29
AACGGACA,0.171
ACACCCAG,-0.197
AGAAGCTG,-0.106
AACTATCG,-0.00788
AGTGATAT,-0.0245
ATTCCTCC,-0.105

# Set 3
# Target: Replicase polyprotein 1ab, nsp13 helicase (rep, Severe acute respiratory syndrome coronavirus 2, UniProt P0DTD1)
# Action: inhibitor
# Concentration: 20 µM
Compound,inhibition
CCS(=O)(=O)N(C)[C@H]1c2cc(C#N)ccc2OC(C)(C)[C@@H]1O,-0.44%
O=P(O)(O)C(O)(Cc1cnc2ccccn12)P(=O)(O)O,-6.05%
CCC(C)c1ccc(NC(=O)Cn2cnc3c2c(=O)n(C)c(=O)n3C)cc1 (stereo not shown),0.45%
Cc1cc(CC(=O)O)n(C)c1C(=O)c1ccc(Cl)cc1,0.18%
CC1=C(C(=O)O)N2C(=O)[C@@H](NC(=O)[C@H](N)C3=CCC=CC3)[C@H]2SC1,-0.26% and -2.38%
Cn1cc(C(=O)c2cccc3ccccc23)cc1C(=O)O,1.58%
O=S(=O)(N[C@H]1CC[C@@](c2cc(F)ccc2F)(S(=O)(=O)c2ccc(Cl)cc2)CC1)C(F)(F)F,0.41%
O=C(O)c1cc2cccc([N+](=O)[O-])c2[nH]1,7.09%
CCOC(=O)C(C)Oc1cccc2c(=O)n(CC(=O)Nc3ccc4c(c3)OCCO4)ccc12 (stereo not shown),-0.04%
C#CC1(OCC(O)CN2CCN(c3cccc(C(F)(F)F)c3)CC2)CCCCC1 (stereo not shown),9.98%
CCn1c2ccccc2c2cc(Nc3ccnc(NCCCN4CCOCC4)n3)ccc21,31.1%
O=C(c1cc2ccccc2o1)N1CCN(Cc2ccccc2)CC1,5.91%
CSc1nc2ccc3nc(NC(=O)C(c4ccccc4)c4ccccc4)sc3c2s1,4.82%
N#C/C(=C\c1ccc(O)c(O)c1)C(=O)NCc1ccccc1,27.4%
CCO[C@@H]1OC(=O)C[C@@H]1NC(=O)[C@@H]1CCCN1C(=O)[C@@H](NC(=O)c1ccc(N)c(Cl)c1)C(C)(C)C,3.7%
CC(C)c1cc(C(C)C)c(CC(=O)NS(=O)(=O)Oc2c(C(C)C)cccc2C(C)C)c(C(C)C)c1,16.5%
O=C(c1ccc(F)cc1)C1CCN(CCCCc2ccccc2)CC1,4.85%
C[C@@H](c1ncncc1F)[C@](O)(Cn1cncn1)c1ccc(F)cc1F,6.09%
Cc1c(C(=O)NCc2cccnc2)nn(-c2ccc(Cl)cc2Cl)c1-c1ccc(Cl)cc1,-3.15%
N#Cc1ccccc1-c1cc(-c2ccccn2)cn(-c2ccccc2)c1=O,3.42%
C1Cc2[nH]nc(-c3nn[nH]n3)c2C1,6.94%
COc1ccc(S(=O)(=O)Nc2cc(Cl)cc(Cl)c2OC)cc1N1CCNCC1,1.23%
CCCCCCCCCC(=O)O[C@H]1CC[C@H]2[C@@H]3CCC4=CC(=O)CC[C@@H]4[C@H]3CC[C@]12C,-0.43%
CC(C)(C)NCC(O)c1ccc(O)c(CO)c1 (stereo not shown),-4.53%

# Set 4
# Target: Interferon regulatory factor 7, full length, phosphomimetic (IRF7, Homo sapiens, UniProt Q92985, residues 1-503, S101K/S471D/S472D/S475D/S476D/S477D/S483D/S484D/S487D)
# Method: protein-binding microarray
# Form: double-stranded DNA, one strand shown
# Medium: in vitro
# Concentration: 250 nM
# Notes: 60-bp whole probe
# Together with: salmon DNA 0.4 mg/ml
# Baseline: random background probes
# Reading: higher = stronger binding
# Shared flanks, not repeated: GCCTAGCAC … GTCTTGATTCGCTTGACGCTGCTG
# Target sequence (chain): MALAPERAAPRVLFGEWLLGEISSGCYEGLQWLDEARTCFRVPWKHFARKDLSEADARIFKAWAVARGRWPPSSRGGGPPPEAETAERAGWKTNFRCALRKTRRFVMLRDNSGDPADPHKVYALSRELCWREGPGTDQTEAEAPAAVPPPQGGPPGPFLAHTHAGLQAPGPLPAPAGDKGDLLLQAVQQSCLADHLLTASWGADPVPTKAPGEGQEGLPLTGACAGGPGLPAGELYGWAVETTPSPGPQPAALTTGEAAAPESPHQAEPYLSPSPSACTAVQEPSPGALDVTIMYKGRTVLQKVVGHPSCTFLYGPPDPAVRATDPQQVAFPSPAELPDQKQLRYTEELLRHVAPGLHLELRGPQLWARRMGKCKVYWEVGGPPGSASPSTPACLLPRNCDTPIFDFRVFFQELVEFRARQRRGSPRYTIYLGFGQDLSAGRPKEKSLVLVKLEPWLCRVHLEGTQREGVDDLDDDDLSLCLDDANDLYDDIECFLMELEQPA
Sequence,log fluorescence [z-score]
GACGATCTCAGTATCGTGACGTGCTAG,-0.113
TTACATATCGGGACTGGATTAGTGCTA,0.111
GACGATTTCGGGTTTGGAGACGTGCTA,1.01
TCATGTTTAAGAATGTTACTGTGCTAG,0.53
ACAACTAGGGAATTTAGAAAAGTGCTA,0.127
CCCCTACTGTATTTGGCCAGGTGCTAG,0.139
TTAGATTTCGGGTATCGATTGGTGCTA,2.15
GACGATATCAGTTTCGAAACGTGCTAG,6.15

# Set 5
# Target: Replicase polyprotein 1ab, main protease (rep, Severe acute respiratory syndrome coronavirus 2, UniProt P0DTD1)
# Observed: enzyme activity
# Action: inhibitor
# Notes: without DTT
SMILES,IC50
O=[N+]([O-])C(Br)(CO)CO,400 nM
COc1ccnc(C[S+]([O-])c2nc3ccc(OC(F)F)cc3[nH]2)c1OC (stereo not shown),> 20000 nM
Cc1ccc(-n2sc(=O)n(Cc3ccc(F)cc3)c2=O)cc1,150 nM and 230 nM
Nc1nc2c(ncn2[C@@H]2O[C@H](CO)[C@@H](O)[C@H]2O)c(=S)[nH]1,1100 nM

# For quick reference, copied from above (set 2):
Sequence,E-score
ATTCCTCC,-0.105
ACACCCAG,-0.197
AACGGACA,0.171
